Measurements of several laboratories.
Compare with care: the assays were run in different laboratories. “And” joins repeats or separate records; there may be more than shown.
Target: Serine/threonine-protein kinase PAK 3 (PAK3, Homo sapiens, UniProt O75914)
Sequence of UniProt O75914 (whole entry, looked up): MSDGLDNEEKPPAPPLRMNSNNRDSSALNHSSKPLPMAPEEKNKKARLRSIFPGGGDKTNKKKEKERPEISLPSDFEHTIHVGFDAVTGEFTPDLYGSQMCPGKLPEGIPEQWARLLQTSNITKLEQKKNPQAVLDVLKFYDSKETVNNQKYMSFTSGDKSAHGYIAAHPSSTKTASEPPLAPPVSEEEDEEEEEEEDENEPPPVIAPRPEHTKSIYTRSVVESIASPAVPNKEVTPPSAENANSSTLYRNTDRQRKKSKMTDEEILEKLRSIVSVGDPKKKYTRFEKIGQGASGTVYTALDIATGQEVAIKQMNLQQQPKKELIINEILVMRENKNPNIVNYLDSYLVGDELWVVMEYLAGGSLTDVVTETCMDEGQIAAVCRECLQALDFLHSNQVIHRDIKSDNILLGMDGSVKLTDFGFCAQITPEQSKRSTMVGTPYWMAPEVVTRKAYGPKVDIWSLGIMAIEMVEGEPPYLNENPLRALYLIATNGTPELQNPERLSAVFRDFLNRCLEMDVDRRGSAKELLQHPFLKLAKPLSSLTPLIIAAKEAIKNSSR

With `CCn1cc(C(=O)O)c(=O)c2c(N)c(F)c(NC3CCCCC3)cc21` the inhibition was -0.6% (kinase activity; 0.1 µM, together with: ATP at Km).
`C=CC(=O)Nc1cccc(-c2cnc3[nH]cc(C(=O)NC(C)(C)C)c3n2)c1` gave an inhibition of 5% and 6% (kinase activity; 0.1 µM).
For `CN1CC[C@@H](COc2cnc(C#N)cc2-c2ccn3nc(NC(=O)C4CC4)cc3c2)C1`, the inhibition was 3% (enzyme activity, inhibitor; 1 µM).
The remaining binding of `C=CC(=O)N1CCCC(n2c(=O)c3ncccc3n(Cc3ccc(Oc4ccccc4)cc3)c2=O)C1` (stereo not shown) is reported as 100% (cell-free assay, competition with immobilised ligand; 1 µM).
For `CC(C)=CC1OC(C)(C)C2C=C3C(=O)C(Cl)=CC(O)C3C3C(O)C4OC4C(=O)C132` (stereo not shown), the remaining binding was 98% (cell-free assay, competition with immobilised ligand; 10 µM).
Under “activity vs control”, `CNC(=O)C[C@H](Cc1ccc(C#N)cc1)NC(=O)c1cc(-c2ccc(CN[C@H](C)c3ccc(C)cc3)o2)ccc1Cl` is recorded as 96% (enzyme activity, inhibitor; 1 µM).
`CN1CCN(Cc2ccc(-c3ccc(CO[C@H]4CCC[C@@H]4NC(=O)c4cc(-c5cnn(C)c5)cnc4N)cc3)cc2)CC1` has an inhibition of 12% (enzyme activity, inhibitor; 0.1 µM).
With `Cc1cnc2nc1Nc1cccc(c1)COC/C=C/COCc1cc(ccc1OCCN1CCOCC1)N2` the remaining binding was 93% (binding; 0.1 µM).
`Cc1cccc(O[C@H]2CCC[C@@H](C(C)CNCc3ccncc3)C2)c1` (relative stereo) gave an inhibition of 1% (enzyme activity, inhibitor; 1 µM).
Under “activity vs control”, `O=C(Cc1ccc(OCc2ccccc2)cc1)NC1(C(=O)O)CCN(C(=O)c2ccc(-c3cccc(Cl)c3)cc2)CC1` is recorded as 109% (enzyme activity, inhibitor; 10 µM).
`COc1c(OCCCN2CCOCC2)ccc2c1N=C(NC(=O)c1cnc(N)nc1)N1CCN=C21` has a remaining activity of 65% (kinase activity, inhibitor; 1 µM; relative to: untreated control).
With `NC(=O)C[C@H]1CCc2sc3ncnc(O[C@H]4CC[C@H](N5CCOCC5)CC4)c3c21` the inhibition was 4% (enzyme activity, inhibitor; 10 µM).
The remaining binding of `CNC1C[S+]2CC[S+]3CC[S+](C1)[Ru-4]321([N]=C=S)[n]2c3ccc(OC)cc3c3c4c(c5cc(F)c[n+]1c5c32)C(=O)NC4=O` (stereo not shown) is reported as 100% (KinomeScan; 0.1 µM; relative to: untreated).
For `COCC12C(=O)NC3C4(C(OC)CC1O)C1CC5(O)C(OC)C(O)C(OC(C)=O)(C1C5OC(=O)c1ccccc1)C3(O)C(OC)C24` (stereo not shown), the remaining activity was 107% and 96% (kinase activity, inhibitor, ProQinase kinase profiling; 25 µM; relative to: control).
The remaining binding of `C=CC(=O)N1CCc2ccc(-n3c(=O)ccc4cnc5ccc(-c6cnn(C)c6)cc5c43)cc21` is reported as 100% (KINOMEscan; 1 µM; relative to: DMSO control).
`COc1cc(Nc2nccc(-c3cnn4nc(OC)ccc34)n2)cc(C(F)(F)F)c1` has a remaining binding of 75% (binding, competition with immobilised ligand; 1 µM).

Excerpt of the above:
`CN1CCN(Cc2ccc(-c3ccc(CO[C@H]4CCC[C@@H]4NC(=O)c4cc(-c5cnn(C)c5)cnc4N)cc3)cc2)CC1` has an inhibition of 12% (enzyme activity, inhibitor; 0.1 µM).
The remaining binding of `CNC1C[S+]2CC[S+]3CC[S+](C1)[Ru-4]321([N]=C=S)[n]2c3ccc(OC)cc3c3c4c(c5cc(F)c[n+]1c5c32)C(=O)NC4=O` (stereo not shown) is reported as 100% (KinomeScan; 0.1 µM; relative to: untreated).
